Measurements from different studies.
Each numbered part is a random draw from the data of one study; scales do not carry over between parts.

Series 1 — technique: RNAcompete; form: RNA; sample: in vitro; tested at: 20 nM; setting: 7-mer, probes averaged, single round; baseline: mean of 7-mers; reading: higher = stronger binding
Target: PABPC1L2, full length, GST fusion (mouse, UniProt A0ABA7IW68)
Residues (chain): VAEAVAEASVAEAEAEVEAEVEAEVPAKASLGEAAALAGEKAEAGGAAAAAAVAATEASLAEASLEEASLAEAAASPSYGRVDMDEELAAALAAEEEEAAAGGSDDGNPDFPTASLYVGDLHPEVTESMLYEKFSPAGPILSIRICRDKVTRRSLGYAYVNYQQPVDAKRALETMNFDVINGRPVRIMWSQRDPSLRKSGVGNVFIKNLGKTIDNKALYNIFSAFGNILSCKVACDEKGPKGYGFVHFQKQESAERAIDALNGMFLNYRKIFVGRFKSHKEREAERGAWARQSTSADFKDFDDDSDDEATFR
`UUUUGUU` has a 7-mer Z-score of -0.407.
`AUUCAGA` gave a 7-mer Z-score of 0.0768.
The 7-mer Z-score of `GGCGACA` is reported as 0.318.

Series 2 — technique: universal PBM; form: double-stranded DNA, one strand shown; sample: in vitro; tested at: 600 nM; reading: higher = stronger binding
Target: Sal-like protein 4, full length isoform A (SALL4, Homo sapiens, UniProt Q9UJQ4, residues 1-1053)
Sequence of UniProt Q9UJQ4 (whole entry, looked up): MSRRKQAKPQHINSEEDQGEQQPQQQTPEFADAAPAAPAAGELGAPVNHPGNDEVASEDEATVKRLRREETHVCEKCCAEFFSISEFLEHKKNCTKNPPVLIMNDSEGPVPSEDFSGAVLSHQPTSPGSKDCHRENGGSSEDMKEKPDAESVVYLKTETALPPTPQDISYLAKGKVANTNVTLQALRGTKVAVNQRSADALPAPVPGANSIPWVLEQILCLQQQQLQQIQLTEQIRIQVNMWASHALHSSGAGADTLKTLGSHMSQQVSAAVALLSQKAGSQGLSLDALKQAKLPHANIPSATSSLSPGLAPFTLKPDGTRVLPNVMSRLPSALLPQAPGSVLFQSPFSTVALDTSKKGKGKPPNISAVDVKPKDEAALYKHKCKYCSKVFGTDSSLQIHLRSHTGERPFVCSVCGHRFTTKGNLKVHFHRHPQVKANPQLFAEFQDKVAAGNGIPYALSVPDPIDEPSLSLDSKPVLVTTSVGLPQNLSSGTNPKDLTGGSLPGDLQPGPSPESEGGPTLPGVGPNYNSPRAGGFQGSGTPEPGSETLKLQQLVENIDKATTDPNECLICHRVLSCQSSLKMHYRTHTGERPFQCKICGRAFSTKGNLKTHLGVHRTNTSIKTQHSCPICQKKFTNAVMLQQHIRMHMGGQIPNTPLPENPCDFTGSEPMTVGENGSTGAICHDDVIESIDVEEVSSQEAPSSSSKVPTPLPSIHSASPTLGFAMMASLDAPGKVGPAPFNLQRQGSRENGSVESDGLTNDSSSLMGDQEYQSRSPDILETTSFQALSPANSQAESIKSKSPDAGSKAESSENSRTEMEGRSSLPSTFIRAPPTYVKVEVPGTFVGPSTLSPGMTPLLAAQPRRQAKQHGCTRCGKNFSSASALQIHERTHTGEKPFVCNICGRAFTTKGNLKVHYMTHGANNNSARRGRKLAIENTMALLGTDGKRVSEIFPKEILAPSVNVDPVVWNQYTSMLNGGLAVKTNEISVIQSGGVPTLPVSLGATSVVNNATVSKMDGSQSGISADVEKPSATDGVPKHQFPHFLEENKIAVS
Setting: 8-mer, flanks averaged, mean of replicates
`ATGGTCAC` has an E-score of -0.0459.
With `CGTGTTGC` the E-score was -0.119.
`CGTAAGGC` gave an E-score of -0.0641.

Further values, each from its own experiment
`ATCCTTAA` has an E-score of -0.0936 (Histone acetyltransferase KAT6A, both winged helices, GST fusion (KAT6A, Homo sapiens, UniProt Q92794, residues 1-181); protein binding microarray; double-stranded DNA, one strand shown, in vitro; not given, 8-mer, flanks averaged, mean of 2 arrays, mostly near background; baseline: not given, higher = stronger binding).
The fold induction of `PhoQ, residues 284 288 289 292 302 303 NLMGRA` is reported as 13.6 (PhoP, residues 12 14 15 18 19 NYFTV (Escherichia coli, UniProt P23836); Sort-seq, measured: YFP reporter; E. coli; PhoQ-PhoP variant library, with: 10 µM Mg2+; baseline: high Mg2+ state, higher = stronger signaling).

For quick reference, copied from above (further values, each from its own experiment):
`ATCCTTAA` has an E-score of -0.0936 (Histone acetyltransferase KAT6A, both winged helices, GST fusion (KAT6A, Homo sapiens, UniProt Q92794, residues 1-181); protein binding microarray; double-stranded DNA, one strand shown, in vitro; not given, 8-mer, flanks averaged, mean of 2 arrays, mostly near background; baseline: not given, higher = stronger binding).
